Measured values of several laboratories.
Numbers after ± are the reported error.

For `Cc1ccc(/C=C/C(=O)O)cc1-c1cc2c(cc1C)C(C)(C)CCC2(C)C`, the blood cholesterol was 66 ± 10.6 mg/dL (Sprague-Dawley rat, male; oral, 100 mg/kg, 12 h, sesame oil vehicle).
With `CC[C@H](C)C(=O)N1CCC(NC(=O)Nc2ccc(OC(F)(F)F)c(F)c2)CC1` the AUC(0-t) was 4200 ng·h/mL (human; oral, 8 mg, fed, geometric LS mean).
For `COc1ccc(NC(=O)Cn2c(=O)c3ccccc3n(CC(=O)Nc3cc([125I])c(OC)cc3OC)c2=O)cc1`, the tracer uptake was 1.09 %ID/g (rat, intestine; intravenous, 5 min).
The tissue concentration of `Cn1cc(-c2cccc(CN3CCC4(CC3)COc3c4ccc4c3CN([C@H]3CCC(=O)NC3=O)C4=O)c2)cn1` is reported as 1930 ng/g (mouse Crbn I391V, spleen; oral, 30 mg/kg, 6 h).
For `CC(C)C[C@H](NC(=O)[C@H](Cc1ccc(O)cc1)NC(=O)[C@H](C)NC(=O)[C@H](CC(N)=O)NC(=O)[C@H](CC(C)C)NC(=O)[C@H](C)NC(=O)[C@@H](NC(=O)[C@H](CCCCN)NC(=O)CNC(=O)[C@@H](NC(=O)[C@H](CC(N)=O)NC(=O)[C@H](CCCCN)NC(=O)CNC(=O)[C@@H](NC(=O)[C@H](Cc1c[nH]cn1)NC(=O)[C@H](C)NC(=O)[C@H](C)NC(=O)[C@H](CCCCN)NC(=O)[C@H](CCCCN)NC(=O)[C@H](Cc1ccccc1)NC(=O)[C@H](Cc1c[nH]c2ccccc12)NC(=O)[C@H](CCCCN)NC(=O)[C@H](CCCCN)NC(=O)[C@H](CS)NC(=O)CN)C(C)C)C(C)C)C(C)C)C(N)=O`, “acute toxic concentration” read 5 to 25 µg/mL (zebrafish embryos; 1 h, 4, 28, 52 hpf).
`COc1cc(NC(=O)C(=O)c2c(C)n(Cc3ccc(Cl)cc3)c3ccc(C)cc23)ccn1` has a bioavailability of 14 to 21% (cynomolgus monkey, plasma; oral, 10 mg/kg).
For `CCCCCCCCCCCCC(=O)O.O=C1CCCC2C3CCCN4CCCC(CN12)C34` (stereo not shown), “limiting apparent molar volume” read 420 ± 0.6 cm³/mol (water; concentration not given, 293.15 K).
`CC(C)[C@H](NC(=O)CNC(=O)[C@H](CCC(N)=O)NC(=O)[C@H](C)N)C(=O)O`: “subjects with adverse events” 0% (serious adverse event; human; 20 mg/kg, 3 days, thrice daily dosing).
Under “serum total protein”, `CN(C)C(CNC(=O)Nc1cc(C(F)(F)F)ccc1N1CCOCC1)c1ccncc1` (stereo not shown) is recorded as 4.5 g/dL (mouse, serum; intraperitoneal, 120 mg/kg single dose).
`COC(=O)C[C@H](NC(=O)[C@H](C)NC(=O)[C@@H](NC(=O)[C@H](CC(=O)OC)NC(=O)[C@@H](NC(=O)c1ccc2ccccc2n1)C(C)C)C(C)C)C(=O)COc1c(F)cccc1F` — result for “core body temperature”: 36.4 ± 0.67 °C (rat pups; 1 mg/kg, 1 h).
`O=C(O)[c-]1cccc1.O=C(Oc1ccc(-n2cccc2)cc1)[c-]1cccc1.[Fe+2]` gave an Epa of 1030 mV (cyclic voltammetry; acetonitrile; baseline: Ag/AgCl).
`CC1N=C(c2ccccc2F)c2cc(Br)ccc2-n2cnc(C(=O)OC3OC(CO)C(O)C(O)C3O)c21` (stereo not shown) has a cumulative excretion of 2.4 ± 0.2% (LC-MS/MS; Swiss Webster mouse, female, urine; intraperitoneal, 750 µg parent drug, 24 to 48 h).
`C[C@]12C(=O)[C@](C)(C(c3ccccc3)=C1c1ccccc1)C1(Br)C(=O)N(CCN)C(=O)C12` (stereo partly shown) gave a decomposition temperature of 125 °C (thermogravimetric analysis).
For `CCCCCCCC/C=C\CCCCCCCCOP(O)(O)=S.N`, the Cmax was 476 ng/mL (mouse, male, nonirradiated; sc, dose not given).
For `CC[C@H](C)[C@H](NC(=O)[C@H](C)NC(=O)[C@H](CCCNC(=N)N)NC(=O)CNC(=O)CNC(=O)[C@H](CCCNC(=N)N)NC(=O)[C@H](CCCNC(=N)N)NC(=O)[C@H](CCCNC(=N)N)NC(=O)[C@H](CCC(N)=O)NC(=O)[C@H](CCCNC(=N)N)NC(=O)[C@H](CCCNC(=N)N)NC(=O)[C@H](CCCCN)NC(=O)[C@H](CCCCN)NC(=O)[C@H](CCCNC(=N)N)NC(=O)CNC(=O)[C@@H](N)Cc1ccc(O)cc1)C(=O)N[C@H](C(=O)N[C@H](C(=O)N[C@@H](CC(C)C)C(=O)N[C@@H](CC(=O)O)C(=O)N[C@H](C(=O)N[C@@H](CCC(=O)O)C(=O)N[C@@H](CCCCN)C(=O)N[C@@H](CO)C(=O)O)[C@@H](C)O)[C@@H](C)CC)[C@@H](C)O`, “rectal body temperature” read 37.2 ± 0.1 °C (male Sprague-Dawley rat, myocardial infarction; iv, 1 mg/kg, 2 h reperfusion).
The VLDL of `CSCC[C@@H]1NC(=O)[C@@H]2CSSC[C@H](NC(=O)[C@H](CO)NC(=O)[C@H](C)N)C(=O)N[C@@H](CCCNC(=N)N)C(=O)N[C@@H]([C@@H](C)O)C(=O)N3CCC[C@H]3C(=O)N[C@@H](CCCCN)C(=O)N[C@@H](CC(=O)O)C(=O)N[C@H]3CSSC[C@H](NC(=O)[C@H](CCCCN)NC(=O)[C@H](CCCNC(=N)N)NC(=O)[C@H](CC(N)=O)NC1=O)C(=O)N[C@@H](CCCCN)C(=O)N[C@H]1CSSC[C@H](NC(=O)[C@@H]4CCCN4C(=O)[C@H](CC(=O)O)NC(=O)[C@H](C)NC3=O)C(=O)N[C@@H](C)C(=O)N[C@@H](CCCCN)C(=O)N[C@@H](CCC(=O)O)C(=O)N[C@@H]([C@@H](C)O)C(=O)NCC(=O)N[C@@H](CSSC[C@@H](C(N)=O)NC(=O)[C@H](CCCNC(=N)N)NC(=O)[C@H](CC(N)=O)NC1=O)C(=O)N1CCC[C@H]1C(=O)N[C@@H](Cc1ccc(O)cc1)C(=O)NCC(=O)N[C@@H](CCCCN)C(=O)N2` is reported as 10.8 mg/dL (DA rat, pristane-induced arthritis, serum; subcutaneous, 0.1 mg/kg once weekly, 21 days).
`CC[C@@H]1C[C@]1(NC(=O)[C@@H]1C[C@@]2(CN1C(=O)[C@@H](NC(=O)[C@@H](NC(=O)[C@@H]1CCCCN1C(C)C)C1CCCCC1)C(C)(C)C)C(C)(C)C21CCC1)C(=O)NS(=O)(=O)N1CCCC1`: “subjects with adverse event” 0% (measured: Nausea; human; oral, 50 mg, simultaneous dosing on day 2, with: ritonavir 100 mg).
`O=C(c1ccc(F)cc1)C1CCN(C2Cc3c(cccc3OCC[18F])CC2O)CC1` (single isomer, unassigned; (-)) has a tissue uptake of 0.27 ± 0.033 %ID/g (Sprague-Dawley rat, male, blood; intravenous, dose not given, 30 min).
`CC(CCC(=O)NCC(=O)O)C1CCC2C3C(O)CC4CC(OC5OC(C(=O)O)C(O)C(O)C5O)CCC4(C)C3CCC12C` (stereo not shown) gave a plasma concentration of 12.9 ng/mL (human, SLCO1B1 *14/*35, plasma; geometric mean, sex-adjusted).
`C[C@@H](O)[C@H](NC(=O)[C@H](CCCCN)NC(=O)COCCN)C(=O)N[C@@H](CCCNC(=N)N)C(=O)NC(C)(C)C(=O)N[C@@H](CCCNC(=N)N)C(=O)NC(C)(C)C(=O)N[C@H](C(=O)N[C@@H](CO)C(=O)N[C@@H](Cc1c[nH]cn1)C(=O)N[C@@H](Cc1ccc(O)cc1)C(=O)NCC(=O)O)[C@@H](C)O` has a lactate dehydrogenase of 1000 to 2400 U/L (C57BL/6 mouse, blood; intravenous, 50 mg/kg, 10 h).
`COC(=O)C[C@](O)(CCCC(C)(C)OC(C)=O)C(=O)O[C@@H]1C(OC)=C[C@]23CCCN2CCc2cc4c(cc2[C@H]13)OCO4`: tissue concentration “not detected” (CD1 mouse, large intestine; oral, 1 mg/kg, 24 h, below quantification limit 1.00 ng/mL).
`CC(C)C[C@@H](N)C(=O)NCC(=O)N[C@H](C)C(=O)N[C@H](CO)C(=O)N[C@H](Cc1c[nH]c2ccccc12)C(=O)N[C@H](Cc1c[nH]cn1)C(=O)N[C@H](CCCNC(=N)N)C(=O)N1CCC[C@@H]1C(=O)N[C@H](CC(=O)O)C(=O)N[C@H](CCCCN)C(=O)N[C@H](CS)C(=O)N[C@H](CS)C(=O)N[C@H](CC(C)C)C(=O)NCC(=O)N[C@H](Cc1ccc(O)cc1)C(=O)N[C@H](CCC(N)=O)C(=O)N[C@H](CCCCN)C(=O)N[C@H](CCCNC(=N)N)C(=O)N1CCC[C@@H]1C(=O)N[C@H](CC(C)C)C(=O)N1CCC[C@@H]1C(N)=O` gave an accuracy of 112% (LC-MS/MS; rat plasma; 500 ng/mL, 30 days, -80 °C, storage; baseline: nominal).

Some of these lines once more:
`COc1cc(NC(=O)C(=O)c2c(C)n(Cc3ccc(Cl)cc3)c3ccc(C)cc23)ccn1` has a bioavailability of 14 to 21% (cynomolgus monkey, plasma; oral, 10 mg/kg).
For `CC(C)C[C@H](NC(=O)[C@H](Cc1ccc(O)cc1)NC(=O)[C@H](C)NC(=O)[C@H](CC(N)=O)NC(=O)[C@H](CC(C)C)NC(=O)[C@H](C)NC(=O)[C@@H](NC(=O)[C@H](CCCCN)NC(=O)CNC(=O)[C@@H](NC(=O)[C@H](CC(N)=O)NC(=O)[C@H](CCCCN)NC(=O)CNC(=O)[C@@H](NC(=O)[C@H](Cc1c[nH]cn1)NC(=O)[C@H](C)NC(=O)[C@H](C)NC(=O)[C@H](CCCCN)NC(=O)[C@H](CCCCN)NC(=O)[C@H](Cc1ccccc1)NC(=O)[C@H](Cc1c[nH]c2ccccc12)NC(=O)[C@H](CCCCN)NC(=O)[C@H](CCCCN)NC(=O)[C@H](CS)NC(=O)CN)C(C)C)C(C)C)C(C)C)C(N)=O`, “acute toxic concentration” read 5 to 25 µg/mL (zebrafish embryos; 1 h, 4, 28, 52 hpf).
